# Experimental data of several laboratories.
# Compare with care: the assays were run in different laboratories. Changes are numbered by the printed parent chain. ± gives the spread as reported.
# Lin28a: Lin28a 119-180 (Mus musculus, UniProt Q8K3Y3)
# Chain of UniProt Q8K3Y3 (whole entry, looked up): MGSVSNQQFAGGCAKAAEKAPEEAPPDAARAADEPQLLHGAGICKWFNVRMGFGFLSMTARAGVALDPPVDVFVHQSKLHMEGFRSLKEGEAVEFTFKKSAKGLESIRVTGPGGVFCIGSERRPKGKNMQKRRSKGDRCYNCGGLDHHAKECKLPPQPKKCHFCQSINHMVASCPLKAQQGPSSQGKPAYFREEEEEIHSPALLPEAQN
# SPT10: SPT10 283-640 (Saccharomyces cerevisiae, UniProt P35208)
# Chain of UniProt P35208 (whole entry, looked up): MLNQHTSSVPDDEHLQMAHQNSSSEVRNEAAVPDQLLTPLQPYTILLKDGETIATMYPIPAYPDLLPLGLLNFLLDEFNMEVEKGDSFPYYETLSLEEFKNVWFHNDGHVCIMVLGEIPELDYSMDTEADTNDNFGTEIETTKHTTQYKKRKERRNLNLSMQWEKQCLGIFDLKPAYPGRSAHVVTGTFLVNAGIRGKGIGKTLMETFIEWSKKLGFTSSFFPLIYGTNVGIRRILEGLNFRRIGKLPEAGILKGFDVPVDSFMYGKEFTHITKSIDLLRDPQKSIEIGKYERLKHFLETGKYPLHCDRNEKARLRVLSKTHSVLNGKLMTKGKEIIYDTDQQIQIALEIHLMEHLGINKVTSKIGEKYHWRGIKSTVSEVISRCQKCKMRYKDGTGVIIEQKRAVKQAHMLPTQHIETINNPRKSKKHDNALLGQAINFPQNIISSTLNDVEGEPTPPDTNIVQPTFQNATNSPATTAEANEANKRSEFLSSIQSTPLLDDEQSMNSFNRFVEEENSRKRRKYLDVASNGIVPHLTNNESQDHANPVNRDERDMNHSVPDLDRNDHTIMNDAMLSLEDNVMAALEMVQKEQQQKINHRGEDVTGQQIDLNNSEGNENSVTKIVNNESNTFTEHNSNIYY
# msl-2 C560G: msl-2 520-570 C560G (Drosophila melanogaster, UniProt P50534)
# Chain of UniProt P50534 (whole entry, unmodified, looked up): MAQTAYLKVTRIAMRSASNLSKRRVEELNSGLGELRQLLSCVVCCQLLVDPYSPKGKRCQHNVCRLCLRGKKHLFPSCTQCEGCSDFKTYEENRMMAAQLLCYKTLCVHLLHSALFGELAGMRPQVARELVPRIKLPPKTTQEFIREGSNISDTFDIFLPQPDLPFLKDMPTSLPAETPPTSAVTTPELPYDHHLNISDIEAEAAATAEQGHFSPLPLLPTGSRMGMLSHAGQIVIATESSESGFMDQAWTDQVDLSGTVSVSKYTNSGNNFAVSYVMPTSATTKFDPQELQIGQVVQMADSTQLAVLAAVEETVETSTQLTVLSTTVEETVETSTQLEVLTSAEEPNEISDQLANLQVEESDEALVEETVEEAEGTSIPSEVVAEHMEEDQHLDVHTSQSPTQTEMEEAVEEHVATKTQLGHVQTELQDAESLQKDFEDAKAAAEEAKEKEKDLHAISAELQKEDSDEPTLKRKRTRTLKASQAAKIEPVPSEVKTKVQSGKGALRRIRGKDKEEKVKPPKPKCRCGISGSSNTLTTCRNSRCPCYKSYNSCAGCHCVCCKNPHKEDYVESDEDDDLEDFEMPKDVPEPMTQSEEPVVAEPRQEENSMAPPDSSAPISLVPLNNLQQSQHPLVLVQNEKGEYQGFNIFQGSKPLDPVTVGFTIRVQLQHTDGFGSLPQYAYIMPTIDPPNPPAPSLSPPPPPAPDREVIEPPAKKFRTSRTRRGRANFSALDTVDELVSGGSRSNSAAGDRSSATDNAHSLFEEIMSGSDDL
# T1: Vegfa residues 27-190 (Rattus norvegicus); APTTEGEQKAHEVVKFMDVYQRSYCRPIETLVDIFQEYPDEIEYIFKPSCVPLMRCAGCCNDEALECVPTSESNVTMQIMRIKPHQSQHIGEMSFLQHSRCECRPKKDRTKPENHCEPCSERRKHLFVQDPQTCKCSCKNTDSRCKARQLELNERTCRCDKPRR
# P1: NCAM1 residues 745-753 (Mus musculus); IAVNLCGKA; partner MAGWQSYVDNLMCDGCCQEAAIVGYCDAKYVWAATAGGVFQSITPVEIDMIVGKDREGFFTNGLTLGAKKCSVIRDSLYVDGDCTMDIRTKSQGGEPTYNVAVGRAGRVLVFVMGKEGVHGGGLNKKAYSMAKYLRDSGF
# Chain of UniProt Q9NWB1 (whole entry, looked up): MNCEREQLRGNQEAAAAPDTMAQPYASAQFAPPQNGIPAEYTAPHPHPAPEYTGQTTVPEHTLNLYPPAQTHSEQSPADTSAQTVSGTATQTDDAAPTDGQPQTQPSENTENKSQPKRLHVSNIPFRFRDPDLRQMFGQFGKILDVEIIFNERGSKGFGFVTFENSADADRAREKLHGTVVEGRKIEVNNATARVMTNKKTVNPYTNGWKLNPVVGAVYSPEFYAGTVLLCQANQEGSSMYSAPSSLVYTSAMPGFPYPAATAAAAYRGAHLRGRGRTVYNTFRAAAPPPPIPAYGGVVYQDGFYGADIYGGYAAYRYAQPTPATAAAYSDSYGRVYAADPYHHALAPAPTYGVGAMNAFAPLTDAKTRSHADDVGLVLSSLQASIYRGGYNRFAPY
# Chain of UniProt Q6PI48 (whole entry, looked up): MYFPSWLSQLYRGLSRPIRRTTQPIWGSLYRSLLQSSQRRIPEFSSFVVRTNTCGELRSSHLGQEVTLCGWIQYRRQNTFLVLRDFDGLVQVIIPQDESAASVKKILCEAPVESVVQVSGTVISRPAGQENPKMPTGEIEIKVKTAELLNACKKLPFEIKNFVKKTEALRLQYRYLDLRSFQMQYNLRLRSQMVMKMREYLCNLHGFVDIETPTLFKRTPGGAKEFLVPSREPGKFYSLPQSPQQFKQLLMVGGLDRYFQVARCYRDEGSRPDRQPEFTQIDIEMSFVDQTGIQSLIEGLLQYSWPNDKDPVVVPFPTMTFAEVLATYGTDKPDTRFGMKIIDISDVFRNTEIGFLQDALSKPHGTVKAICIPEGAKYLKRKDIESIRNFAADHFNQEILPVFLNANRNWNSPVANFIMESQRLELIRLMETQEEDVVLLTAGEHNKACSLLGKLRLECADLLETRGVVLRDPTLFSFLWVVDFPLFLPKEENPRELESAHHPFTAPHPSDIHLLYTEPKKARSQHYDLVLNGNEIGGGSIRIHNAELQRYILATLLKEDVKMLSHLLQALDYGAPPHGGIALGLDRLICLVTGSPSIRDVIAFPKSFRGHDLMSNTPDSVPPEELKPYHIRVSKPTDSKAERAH
# Chain of UniProt Q9QX72 (whole entry, looked up): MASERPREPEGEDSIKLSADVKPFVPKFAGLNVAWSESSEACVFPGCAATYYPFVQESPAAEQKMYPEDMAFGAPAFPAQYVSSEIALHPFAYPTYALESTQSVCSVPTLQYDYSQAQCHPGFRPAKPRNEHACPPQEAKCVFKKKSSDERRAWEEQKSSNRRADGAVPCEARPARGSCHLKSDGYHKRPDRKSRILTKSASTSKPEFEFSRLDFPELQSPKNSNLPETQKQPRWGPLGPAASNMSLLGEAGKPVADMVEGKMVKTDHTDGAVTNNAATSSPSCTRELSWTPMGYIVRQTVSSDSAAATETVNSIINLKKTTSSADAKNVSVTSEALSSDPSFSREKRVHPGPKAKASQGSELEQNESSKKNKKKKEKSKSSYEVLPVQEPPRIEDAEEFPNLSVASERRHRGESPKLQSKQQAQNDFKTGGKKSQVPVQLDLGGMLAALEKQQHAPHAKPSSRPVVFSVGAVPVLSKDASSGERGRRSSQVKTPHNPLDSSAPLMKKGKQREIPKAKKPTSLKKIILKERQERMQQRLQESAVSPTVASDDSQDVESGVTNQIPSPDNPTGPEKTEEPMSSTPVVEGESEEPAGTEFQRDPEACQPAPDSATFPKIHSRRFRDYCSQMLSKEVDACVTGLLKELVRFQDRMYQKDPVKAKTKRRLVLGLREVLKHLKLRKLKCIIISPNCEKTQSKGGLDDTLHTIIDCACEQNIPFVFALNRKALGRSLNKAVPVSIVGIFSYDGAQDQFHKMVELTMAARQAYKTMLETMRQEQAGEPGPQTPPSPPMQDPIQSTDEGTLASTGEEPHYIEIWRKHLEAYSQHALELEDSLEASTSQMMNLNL
# Chain of UniProt Q9UIF7 (whole entry, looked up): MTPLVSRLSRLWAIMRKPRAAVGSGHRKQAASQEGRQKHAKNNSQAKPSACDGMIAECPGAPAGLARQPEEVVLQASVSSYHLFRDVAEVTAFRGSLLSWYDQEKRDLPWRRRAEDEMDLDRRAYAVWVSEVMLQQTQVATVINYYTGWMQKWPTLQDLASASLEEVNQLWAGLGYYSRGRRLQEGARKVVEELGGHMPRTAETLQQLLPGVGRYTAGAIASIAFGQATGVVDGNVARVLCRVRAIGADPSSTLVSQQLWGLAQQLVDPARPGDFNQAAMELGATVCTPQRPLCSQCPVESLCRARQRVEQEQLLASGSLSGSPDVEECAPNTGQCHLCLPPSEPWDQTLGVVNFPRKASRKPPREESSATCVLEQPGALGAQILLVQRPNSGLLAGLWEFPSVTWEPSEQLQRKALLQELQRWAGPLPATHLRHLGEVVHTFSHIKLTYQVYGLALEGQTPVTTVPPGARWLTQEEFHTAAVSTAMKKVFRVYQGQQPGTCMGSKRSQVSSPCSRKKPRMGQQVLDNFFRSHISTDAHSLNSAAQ
# Chain of UniProt Q9WV35 (whole entry, looked up): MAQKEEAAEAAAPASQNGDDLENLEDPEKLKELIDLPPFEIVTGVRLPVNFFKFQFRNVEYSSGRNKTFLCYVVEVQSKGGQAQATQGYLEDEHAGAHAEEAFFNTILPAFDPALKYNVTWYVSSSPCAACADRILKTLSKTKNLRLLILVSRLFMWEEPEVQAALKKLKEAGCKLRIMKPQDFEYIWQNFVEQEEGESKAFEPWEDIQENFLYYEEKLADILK
Substance,tested on,assay,system,conditions,how to read,measurement,value
"GCTGAGCTTCTGGTGAAGCTCAGCTCGCGGCAGCTGGTGCTGCCGCGA (dsDNA; dumbbell, central nick, 5' phosphate)",PARP2 NTR 1-78 (Homo sapiens),fluorescence polarization,folded DNA,,,Kd,994 nM
"DNA 1 GTCGTGGACTAGGCAAAGAACTTATAGAGCCACTTGAGCACACAGAGG / DNA 2 CTAGTCCACGACTTTTTTTT (dsDNA; 8-oxoG opposite A, three-strand assembly)","MUTYH full length assumed (Homo sapiens, UniProt Q9UIF7)",SPR,double-stranded DNA,,,Kd,6.2 nM
GCAGAUUGAGGAUCUAUGAUACCACCCGGUACAGGAGAUAUCUGCA (structured RNA),Lin28a,EMSA,folded RNA,,,Kd,25 ± 7 nM
P1 L5A C6S,PFN2,ELISA,,"1.6 µM, read off a plot",higher = more binding,signal,0.049 OD
"CGGAAUCAGUGAAUGCUUAUACAUCCG (ssRNA; single strand, 2'-F pyrimidines, 2'-OMe purines)","T1, Vegfa residues 27-190 (Rattus norvegicus)",ELONA,modified nucleic acid,,,Kd,0.008 ± 0.01 nM
GCAGAUUGACGAUCUAUGAUACCACCCGGUACAGGAGAUAUCUGCA (structured RNA),Lin28a,EMSA,folded RNA,,,Kd,18 ± 5 nM
CATTAGCGCTGTTCCAAAATTTTCGCCTCACTGTGCGAAGCTATTGGAATGGAGTGTATT (dsDNA),SPT10,EMSA,"double-stranded DNA, one strand shown",,,Kd,67 ± 19 nM
ATGAGCGAGATG (dsDNA),msl-2 C560G,NMR titration,"double-stranded DNA, one strand shown","apparent, stoichiometry fixed",,Kd,2700 nM
"CACGGACCCCAUGGCAGGGGUGGCGUCUUCAUGAGGGAGGGGCCCAAAGCCCUUGUGGGCGGACCUCCCCUGAGCCUGUCUGAGGGGCCAGCCCUUAGUGCAU (structured RNA (human); stem-loop, kink-turn)","Secisbp2 517-777 (Rattus norvegicus, UniProt Q9QX72)",EMSA,,"apparent, together with: tRNA competitor",,Kd,14 nM
GAGCGAGA (dsDNA),msl-2 C560G,NMR titration,"double-stranded DNA, one strand shown",apparent,,Kd,31000 nM
TCTCAAGAAAAAAAAAAAAAGAC (ssDNA),"Apobec2 full length assumed (Mus musculus, UniProt Q9WV35)",MST,single-stranded DNA,together with: Mg2+ 5 mM,,Kd,20200 ± 6580 nM
GCAGAUUGAGGGUCUAUGAUACCGCAAGGUACAGGAGAUAUCUGCA (structured RNA),Lin28a,EMSA,folded RNA,,,Kd,4 ± 1 nM
GTGTGGGTGTG (ssDNA),"CDC13 1-924 F539A (Saccharomyces cerevisiae, UniProt P32797)",filter binding,single-stranded DNA,KCl 750 mM,,Kd,12 ± 2 nM
GCCTCACTGTGCGAAGCTATTGGAATGGAGTGTA (dsDNA),SPT10,EMSA,"double-stranded DNA, one strand shown",,,Kd,99 ± 4 nM
TGCGGCCAAAAAATTCGTTTTGATGTTTCT (dsDNA),"msl-2 1-773 (Drosophila melanogaster, UniProt P50534)",EMSA,"double-stranded DNA, one strand shown",,,Kd,87 ± 15 nM
CAGTGCGACACGGCATGCCTG (dsDNA; blunt; central CpG 5mC both strands),"Mecp2 78-164 (Rattus norvegicus, UniProt Q00566)",EMSA,"double-stranded DNA, one strand shown",NaCl 125 mM,,Kd,14.1 nM
GCAGAUUGAGGGUCUAUGAUACCACCCGGUACAGGAGAUAUCUGCA (structured RNA),Lin28a,EMSA,folded RNA,,,Kd,1.3 ± 0.3 nM
UAGCUUAUCAGACUGAUGUUGACUGUUGCAUGUCAUGGCAACACCAGUCGAUGGGCUGU (structured RNA),"RBFOX1 109-208 (Homo sapiens, UniProt Q9NWB1)",ITC,folded RNA,,,Kd,252 ± 43 nM
GCAGAUUGAGGGUCUAUGCUACCACCCGGUACAGGAGAUAUCUGCA (structured RNA),Lin28a,EMSA,folded RNA,,,Kd,1.6 ± 0.6 nM
GCTGAGCTTCTGGTGAAGCTCAGCTCGCGGCAGCTGGTGCTGCCGCG (dsDNA; 5' phosphate),PARP2 NTR 1-78 (Homo sapiens),fluorescence polarization,folded DNA,,,Kd,1060 nM
AAGGUAUUAGAAAAACCAUUUCAUAACUUUGUCAAAGUUAAAUUAUAGGCUAAAUCCUAUAUAUCUUACCA (tRNA (Homo sapiens)),"DARS2 41-645 (Homo sapiens, UniProt Q6PI48)",ITC,folded RNA,,,Kd,260 ± 180 nM

# Some of these lines once more:
Substance,tested on,assay,system,conditions,how to read,measurement,value
CATTAGCGCTGTTCCAAAATTTTCGCCTCACTGTGCGAAGCTATTGGAATGGAGTGTATT (dsDNA),SPT10,EMSA,"double-stranded DNA, one strand shown",,,Kd,67 ± 19 nM
ATGAGCGAGATG (dsDNA),msl-2 C560G,NMR titration,"double-stranded DNA, one strand shown","apparent, stoichiometry fixed",,Kd,2700 nM
"CACGGACCCCAUGGCAGGGGUGGCGUCUUCAUGAGGGAGGGGCCCAAAGCCCUUGUGGGCGGACCUCCCCUGAGCCUGUCUGAGGGGCCAGCCCUUAGUGCAU (structured RNA (human); stem-loop, kink-turn)","Secisbp2 517-777 (Rattus norvegicus, UniProt Q9QX72)",EMSA,,"apparent, together with: tRNA competitor",,Kd,14 nM
